# Experimental data from different studies.
# Parts stem from different laboratories: compare values within a part only. Positions count from the first letter of the parent shown.
# Sequence of UniProt P53355 (whole entry, looked up): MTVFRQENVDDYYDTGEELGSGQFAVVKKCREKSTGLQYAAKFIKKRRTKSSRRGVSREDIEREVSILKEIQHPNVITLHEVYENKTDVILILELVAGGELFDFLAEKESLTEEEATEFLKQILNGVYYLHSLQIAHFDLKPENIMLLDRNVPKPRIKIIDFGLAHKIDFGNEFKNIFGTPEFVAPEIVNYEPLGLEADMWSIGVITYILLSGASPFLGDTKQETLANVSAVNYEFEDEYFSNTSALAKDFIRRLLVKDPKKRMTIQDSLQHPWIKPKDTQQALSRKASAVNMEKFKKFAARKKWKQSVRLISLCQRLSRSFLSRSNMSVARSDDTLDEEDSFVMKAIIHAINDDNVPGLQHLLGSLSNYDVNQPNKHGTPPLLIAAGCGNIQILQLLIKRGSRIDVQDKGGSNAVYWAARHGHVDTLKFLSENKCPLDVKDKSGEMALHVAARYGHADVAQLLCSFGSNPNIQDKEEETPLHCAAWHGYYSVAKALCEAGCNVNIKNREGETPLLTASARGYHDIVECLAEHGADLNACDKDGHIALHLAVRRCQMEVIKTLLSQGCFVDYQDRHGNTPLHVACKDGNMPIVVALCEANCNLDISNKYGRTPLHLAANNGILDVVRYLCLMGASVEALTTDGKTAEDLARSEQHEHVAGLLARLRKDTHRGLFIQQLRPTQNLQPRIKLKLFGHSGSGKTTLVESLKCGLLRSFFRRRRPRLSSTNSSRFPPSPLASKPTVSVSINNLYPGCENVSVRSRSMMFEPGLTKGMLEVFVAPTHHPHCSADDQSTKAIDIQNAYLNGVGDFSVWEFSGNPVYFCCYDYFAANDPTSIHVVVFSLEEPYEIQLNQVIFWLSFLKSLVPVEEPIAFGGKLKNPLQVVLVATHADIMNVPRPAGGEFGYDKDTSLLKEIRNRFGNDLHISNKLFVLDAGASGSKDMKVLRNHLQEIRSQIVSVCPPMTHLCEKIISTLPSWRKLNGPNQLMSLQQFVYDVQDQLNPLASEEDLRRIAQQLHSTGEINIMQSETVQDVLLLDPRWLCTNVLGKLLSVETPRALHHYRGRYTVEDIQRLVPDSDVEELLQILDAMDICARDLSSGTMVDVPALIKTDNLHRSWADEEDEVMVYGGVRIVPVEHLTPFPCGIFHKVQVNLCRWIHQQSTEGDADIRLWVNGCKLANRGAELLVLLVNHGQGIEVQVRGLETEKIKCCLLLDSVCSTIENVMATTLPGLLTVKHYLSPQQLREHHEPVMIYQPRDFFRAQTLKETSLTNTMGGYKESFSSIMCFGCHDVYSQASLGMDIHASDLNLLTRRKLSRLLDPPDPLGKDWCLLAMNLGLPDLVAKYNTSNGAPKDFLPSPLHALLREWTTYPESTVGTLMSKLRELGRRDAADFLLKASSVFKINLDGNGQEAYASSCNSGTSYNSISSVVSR
# Sequence of UniProt Q9UBF8 (whole entry, looked up): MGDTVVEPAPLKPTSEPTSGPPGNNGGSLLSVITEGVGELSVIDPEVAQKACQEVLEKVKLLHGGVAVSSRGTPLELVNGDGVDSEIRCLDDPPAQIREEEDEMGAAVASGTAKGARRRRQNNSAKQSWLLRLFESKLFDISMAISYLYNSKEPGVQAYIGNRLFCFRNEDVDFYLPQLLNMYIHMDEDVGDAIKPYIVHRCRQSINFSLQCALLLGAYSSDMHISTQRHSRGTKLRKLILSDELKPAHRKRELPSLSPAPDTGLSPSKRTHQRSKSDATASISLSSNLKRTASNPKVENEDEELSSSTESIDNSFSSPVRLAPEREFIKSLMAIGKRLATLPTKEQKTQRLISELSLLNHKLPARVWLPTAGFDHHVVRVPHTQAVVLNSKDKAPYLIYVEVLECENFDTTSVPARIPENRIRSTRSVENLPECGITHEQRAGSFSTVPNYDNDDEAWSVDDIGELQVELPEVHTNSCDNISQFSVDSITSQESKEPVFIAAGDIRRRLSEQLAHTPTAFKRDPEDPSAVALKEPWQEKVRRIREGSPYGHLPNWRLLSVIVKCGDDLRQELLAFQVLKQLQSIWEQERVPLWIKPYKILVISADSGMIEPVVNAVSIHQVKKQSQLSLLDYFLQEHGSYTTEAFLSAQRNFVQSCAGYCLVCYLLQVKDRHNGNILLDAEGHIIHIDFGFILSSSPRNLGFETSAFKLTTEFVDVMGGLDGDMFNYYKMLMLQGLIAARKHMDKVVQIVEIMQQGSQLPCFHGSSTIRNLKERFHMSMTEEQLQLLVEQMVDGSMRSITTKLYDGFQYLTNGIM
# Sequence of UniProt P11309 (whole entry, looked up): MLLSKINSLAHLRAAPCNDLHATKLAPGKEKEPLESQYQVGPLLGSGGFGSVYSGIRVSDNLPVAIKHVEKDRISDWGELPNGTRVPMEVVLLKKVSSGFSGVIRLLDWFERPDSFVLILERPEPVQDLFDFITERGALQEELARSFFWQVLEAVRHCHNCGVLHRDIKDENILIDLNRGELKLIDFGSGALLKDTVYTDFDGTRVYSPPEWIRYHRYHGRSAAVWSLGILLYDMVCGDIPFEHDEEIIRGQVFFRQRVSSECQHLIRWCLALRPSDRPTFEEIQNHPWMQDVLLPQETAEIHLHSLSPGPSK
# Sequence of UniProt Q6P2M8 (whole entry, looked up): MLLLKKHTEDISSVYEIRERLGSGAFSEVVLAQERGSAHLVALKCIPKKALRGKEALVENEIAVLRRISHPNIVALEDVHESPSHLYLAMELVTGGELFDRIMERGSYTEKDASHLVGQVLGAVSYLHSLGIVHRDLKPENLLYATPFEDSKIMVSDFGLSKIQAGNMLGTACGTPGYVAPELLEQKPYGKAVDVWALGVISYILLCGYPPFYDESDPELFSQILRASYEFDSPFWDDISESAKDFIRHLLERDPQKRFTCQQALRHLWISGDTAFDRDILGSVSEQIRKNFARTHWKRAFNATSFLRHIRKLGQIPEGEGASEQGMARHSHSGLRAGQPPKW
# Sequence of UniProt P42338 (whole entry, looked up): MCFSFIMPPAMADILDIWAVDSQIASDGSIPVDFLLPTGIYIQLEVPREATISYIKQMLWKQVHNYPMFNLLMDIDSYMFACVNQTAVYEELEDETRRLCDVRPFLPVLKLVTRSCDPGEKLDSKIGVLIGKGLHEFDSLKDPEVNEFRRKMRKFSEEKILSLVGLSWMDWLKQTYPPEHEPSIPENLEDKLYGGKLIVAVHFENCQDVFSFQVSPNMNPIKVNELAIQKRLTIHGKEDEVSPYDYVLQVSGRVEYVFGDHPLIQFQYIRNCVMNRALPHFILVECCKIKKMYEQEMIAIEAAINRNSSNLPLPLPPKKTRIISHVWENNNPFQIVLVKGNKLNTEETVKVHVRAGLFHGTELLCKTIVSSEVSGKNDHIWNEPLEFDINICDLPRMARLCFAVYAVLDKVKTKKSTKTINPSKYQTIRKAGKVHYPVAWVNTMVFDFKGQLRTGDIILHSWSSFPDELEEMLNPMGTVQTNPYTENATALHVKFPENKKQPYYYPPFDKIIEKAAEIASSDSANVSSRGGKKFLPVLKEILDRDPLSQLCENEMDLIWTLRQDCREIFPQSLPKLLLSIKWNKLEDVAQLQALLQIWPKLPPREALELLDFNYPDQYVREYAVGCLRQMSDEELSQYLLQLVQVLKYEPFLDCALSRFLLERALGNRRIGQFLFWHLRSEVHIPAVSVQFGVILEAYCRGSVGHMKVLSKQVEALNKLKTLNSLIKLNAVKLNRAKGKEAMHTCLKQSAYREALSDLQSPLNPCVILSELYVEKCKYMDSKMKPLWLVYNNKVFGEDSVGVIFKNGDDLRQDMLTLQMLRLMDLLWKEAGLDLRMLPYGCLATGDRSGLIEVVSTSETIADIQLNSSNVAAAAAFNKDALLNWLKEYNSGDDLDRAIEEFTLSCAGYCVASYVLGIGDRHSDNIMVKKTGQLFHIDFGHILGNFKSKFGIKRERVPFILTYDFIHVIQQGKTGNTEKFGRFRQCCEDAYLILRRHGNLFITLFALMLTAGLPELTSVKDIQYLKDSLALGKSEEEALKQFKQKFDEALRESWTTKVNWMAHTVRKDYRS
# Sequence of UniProt Q16539 (whole entry, looked up): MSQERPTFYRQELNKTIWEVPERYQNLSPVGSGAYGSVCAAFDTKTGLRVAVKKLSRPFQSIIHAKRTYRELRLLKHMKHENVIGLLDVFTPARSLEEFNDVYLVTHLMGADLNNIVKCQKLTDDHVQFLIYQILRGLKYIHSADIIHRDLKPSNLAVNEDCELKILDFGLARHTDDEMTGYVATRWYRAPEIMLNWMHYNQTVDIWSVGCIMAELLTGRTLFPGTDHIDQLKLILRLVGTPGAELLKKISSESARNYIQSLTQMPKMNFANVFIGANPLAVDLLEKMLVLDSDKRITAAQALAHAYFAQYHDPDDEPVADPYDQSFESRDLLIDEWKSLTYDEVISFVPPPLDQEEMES

# Sample 1
# Target: Ras GTPase-activating protein-binding protein 1, C-terminal RGG region (G3BP1, Homo sapiens, UniProt Q13283)
# Sequence of UniProt Q13283 (whole entry, looked up): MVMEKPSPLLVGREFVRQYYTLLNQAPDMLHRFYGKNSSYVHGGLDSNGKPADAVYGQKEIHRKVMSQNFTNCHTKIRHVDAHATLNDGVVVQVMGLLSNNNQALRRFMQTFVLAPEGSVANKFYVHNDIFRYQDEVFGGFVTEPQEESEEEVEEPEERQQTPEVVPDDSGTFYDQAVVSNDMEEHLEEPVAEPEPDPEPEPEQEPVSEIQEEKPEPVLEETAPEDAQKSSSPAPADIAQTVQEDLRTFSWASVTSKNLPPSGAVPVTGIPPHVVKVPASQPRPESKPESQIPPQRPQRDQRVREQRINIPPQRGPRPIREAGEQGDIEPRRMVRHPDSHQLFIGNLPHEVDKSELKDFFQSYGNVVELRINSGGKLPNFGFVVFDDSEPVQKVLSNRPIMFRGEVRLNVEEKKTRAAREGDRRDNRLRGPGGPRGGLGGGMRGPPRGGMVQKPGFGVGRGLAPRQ
# Technique: RNA Bind-n-Seq
# Form: RNA
# Sample: in vitro
# Concentration: 1 µM
# Setting: whole 134-nt RNA, ends assumed
# With: 150 mM KCl
# Baseline: input library
# Direction: higher = stronger binding
Strand,log2 enrichment
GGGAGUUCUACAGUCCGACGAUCGUCCUGUGCUACACAUCGUAUGUACCGAAUCGGGGCCCCCGGGGCCCCCGGGCCCCCGGAAAGUAUUAUGUUACGCCGUUCGGAUCUGCAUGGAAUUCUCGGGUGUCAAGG,-1.73
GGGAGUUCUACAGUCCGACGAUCCAAGUCCUGUGCUACACAUCGUAUGUACCGAAUCGGGGCCCGGGGCCCGGCCCGGAAAGUAUUAUGUUACGCCGUUCGGAUCUGCACUUCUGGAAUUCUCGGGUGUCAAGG,-1.56
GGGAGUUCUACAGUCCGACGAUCGGUGGACUAUGGUGCAACAGCAGAAGAGCUGGAAGCUCACUUUCAUGGCUGUGGUUCAGUCAACCGUGUUACCAUACUGUGUGACAAAUUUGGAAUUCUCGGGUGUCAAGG,-1.17
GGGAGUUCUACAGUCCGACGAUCCCUCAAGUCCUGUGCUACACAUCGUAUGUACCGAAUCGGAGGAAAGGAAAGGAAAGUAUUAUGUUACGCCGUUCGGAUCUGCACUUCCAGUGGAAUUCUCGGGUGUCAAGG,-1.02
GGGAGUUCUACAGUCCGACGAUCGGGACGUCAGCAUCGGCAUCAAGUGUGCCCCUGGAGUGGUAGGCCCCGCCGAAGCUGACAUCGACUUCGACAUCAUCCGCAAUGACAAUGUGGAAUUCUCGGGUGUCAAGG,-2.12
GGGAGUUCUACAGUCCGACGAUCUAACUUUAGAGGAGGAUCAGAUGGAUAUGGCAGUGGACGUGGAUUUGGGGAUGGCUAUAAUGGGUAUGGAGGAGGACCUGGAGGUGGCAAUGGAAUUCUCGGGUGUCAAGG,-1.13
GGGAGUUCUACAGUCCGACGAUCAGUCCUGUGCUACACAUCGUAUGUACCGAAUCGGGCCCCGGGGCCCCGGCCCCGGGGAAAGUAUUAUGUUACGCCGUUCGGAUCUGCACUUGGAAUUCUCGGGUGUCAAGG,-2.91
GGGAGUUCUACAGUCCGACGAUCCCUGUGCUACACAUCGUAUGUACCGAAUCGGAAAAAAAGGAAAAAAAGGGAAAAAAAGGGGAAAGUAUUAUGUUACGCCGUUCGGAUCUGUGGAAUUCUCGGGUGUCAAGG,-1.72

# Sample 2
# Target: CEBPE, bZIP domain (human)
# Technique: DHFR protein complementation
# Sample: yeast
# Setting: single substitutions, most at no-binding floor
# Baseline: wild-type JUN-FOS pair
# Direction: higher = stronger binding
# Starting sequence: JUN, bZIP domain (human); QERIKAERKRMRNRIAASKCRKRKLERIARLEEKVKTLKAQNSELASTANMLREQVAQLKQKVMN; partner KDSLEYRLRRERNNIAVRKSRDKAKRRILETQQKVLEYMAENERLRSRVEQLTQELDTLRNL
Change,binding fitness [natural log]
M51Q,-1.07
L45A,-1.49
L45W,-1.49
M51P,-1.49
V35C,-1.06
E54P,-1.49
Q41E,-0.953
A49G,-1.48

# Sample 3
# SMILES: CCc1ccccc1C(=O)Nc1n[nH]c2c(C)c(F)c(C3C(C#N)=C(C)N(C)C(C)=C3C#N)cc12
# Technique: competition with immobilised ligand
# Concentration: 1 µM
target,observed,remaining binding [%]
"Mitogen-activated protein kinase 3 (MAPK3, Homo sapiens, UniProt P27361)",cell-free assay,95
"ALK tyrosine kinase receptor (ALK, Homo sapiens, UniProt Q9UM73)",cell-free assay,98
"Serine/threonine-protein kinase pim-1 (PIM1, Homo sapiens, UniProt P11309)",cell-free assay,100
"Phosphatidylinositol 4-kinase beta (PI4KB, Homo sapiens, UniProt Q9UBF8)",cell-free assay,100
"Ankyrin repeat and protein kinase domain-containing protein 1 (ANKK1, Homo sapiens, UniProt Q8NFD2)",cell-free assay,100
"Phosphatidylinositol 4,5-bisphosphate 3-kinase catalytic subunit beta isoform (PIK3CB, Homo sapiens, UniProt P42338)",cell-free assay,100
"Serine/threonine-protein kinase 38-like (STK38L, Homo sapiens, UniProt Q9Y2H1)",binding,82
"Death-associated protein kinase 1 (DAPK1, Homo sapiens, UniProt P53355)",cell-free assay,100
"Macrophage colony-stimulating factor 1 receptor (CSF1R, Homo sapiens, UniProt P07333)",cell-free assay,100
"Mitogen-activated protein kinase kinase kinase kinase 1 (MAP4K1, Homo sapiens, UniProt Q92918)",cell-free assay,73

# Sample 4
# SMILES: c1ccc(-c2[nH]ncc2-c2ccnc3ccccc23)nc1
# Observed: enzyme activity
# Mode: inhibitor
# Concentration: 0.5 µM
# Baseline: control
target,remaining activity [%]
"MAP/microtubule affinity-regulating kinase 4 (MARK4, Homo sapiens, UniProt Q96L34)",105
"Mitogen-activated protein kinase 14 (MAPK14, Homo sapiens, UniProt Q16539)",96
"Misshapen-like kinase 1 (MINK1, Homo sapiens, UniProt Q8N4C8)",84.1
"Calcium/calmodulin-dependent protein kinase type IV (CAMK4, Homo sapiens, UniProt Q16566)",97.5
"Calcium/calmodulin-dependent protein kinase type 1B (PNCK, Homo sapiens, UniProt Q6P2M8)",98.3
"Serine/threonine-protein kinase Nek3 (NEK3, Homo sapiens, UniProt P51956)",90.2
"Cyclin-dependent kinase 9, with cyclin K (CDK9, Homo sapiens, UniProt P50750)",98.7
"Discoidin domain-containing receptor 2 (DDR2, Homo sapiens, UniProt Q16832)",95.1
"Mitogen-activated protein kinase 1 (MAPK1, Homo sapiens, UniProt P28482)",108
"Dual specificity mitogen-activated protein kinase kinase 1 (MAP2K1, Homo sapiens, UniProt Q02750)",93.7
"RAC-beta serine/threonine-protein kinase (AKT2, Homo sapiens, UniProt P31751)",93
"Serine/threonine-protein kinase MARK2 (MARK2, Homo sapiens, UniProt Q7KZI7)",102
